# Experimental data pooled from the literature.
# Compare with care: the assays were run in different laboratories. “And” joins repeats or separate records; there may be more than shown. Numbers after ± are the reported error.
# HLA class I histocompatibility antigen, A alpha chain allele A*24:02: HLA class I histocompatibility antigen, A alpha chain, allele A*24:02 (Homo sapiens, UniProt P04439)
# Nicotinic acetylcholine receptor alpha1/beta1/epsilon/delta: Nicotinic acetylcholine receptor alpha1/beta1/epsilon/delta (Mus musculus, UniProt P02716+P04756+P09690+P20782)
# Chain of UniProt P02716 (whole entry, looked up): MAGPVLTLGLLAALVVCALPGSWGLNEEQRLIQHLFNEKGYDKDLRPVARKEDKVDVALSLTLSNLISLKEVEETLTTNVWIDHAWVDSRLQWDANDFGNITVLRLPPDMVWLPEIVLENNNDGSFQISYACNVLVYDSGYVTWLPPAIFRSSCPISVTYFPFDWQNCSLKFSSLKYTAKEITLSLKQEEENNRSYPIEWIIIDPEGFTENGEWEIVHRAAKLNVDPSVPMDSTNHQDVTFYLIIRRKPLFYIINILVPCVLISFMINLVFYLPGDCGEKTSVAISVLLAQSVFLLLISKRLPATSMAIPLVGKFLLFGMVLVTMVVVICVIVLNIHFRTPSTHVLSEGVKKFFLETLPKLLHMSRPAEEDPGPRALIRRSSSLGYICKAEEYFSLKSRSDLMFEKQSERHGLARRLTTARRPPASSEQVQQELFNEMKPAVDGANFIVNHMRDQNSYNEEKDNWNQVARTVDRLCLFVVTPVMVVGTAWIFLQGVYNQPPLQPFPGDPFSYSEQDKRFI
# Chain of UniProt P04756 (whole entry, looked up): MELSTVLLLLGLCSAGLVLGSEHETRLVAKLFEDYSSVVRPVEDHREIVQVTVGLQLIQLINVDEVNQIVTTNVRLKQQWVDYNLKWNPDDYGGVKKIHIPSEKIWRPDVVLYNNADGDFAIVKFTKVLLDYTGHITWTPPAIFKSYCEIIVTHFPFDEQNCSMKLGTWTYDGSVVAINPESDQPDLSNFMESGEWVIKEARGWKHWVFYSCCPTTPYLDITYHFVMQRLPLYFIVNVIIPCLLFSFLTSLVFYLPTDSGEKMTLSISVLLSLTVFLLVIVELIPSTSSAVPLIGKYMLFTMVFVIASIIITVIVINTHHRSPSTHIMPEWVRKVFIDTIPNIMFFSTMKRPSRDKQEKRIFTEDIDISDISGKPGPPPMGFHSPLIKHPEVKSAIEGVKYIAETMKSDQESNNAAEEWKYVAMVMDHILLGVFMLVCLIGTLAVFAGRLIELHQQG
# Chain of UniProt P20782 (whole entry, looked up): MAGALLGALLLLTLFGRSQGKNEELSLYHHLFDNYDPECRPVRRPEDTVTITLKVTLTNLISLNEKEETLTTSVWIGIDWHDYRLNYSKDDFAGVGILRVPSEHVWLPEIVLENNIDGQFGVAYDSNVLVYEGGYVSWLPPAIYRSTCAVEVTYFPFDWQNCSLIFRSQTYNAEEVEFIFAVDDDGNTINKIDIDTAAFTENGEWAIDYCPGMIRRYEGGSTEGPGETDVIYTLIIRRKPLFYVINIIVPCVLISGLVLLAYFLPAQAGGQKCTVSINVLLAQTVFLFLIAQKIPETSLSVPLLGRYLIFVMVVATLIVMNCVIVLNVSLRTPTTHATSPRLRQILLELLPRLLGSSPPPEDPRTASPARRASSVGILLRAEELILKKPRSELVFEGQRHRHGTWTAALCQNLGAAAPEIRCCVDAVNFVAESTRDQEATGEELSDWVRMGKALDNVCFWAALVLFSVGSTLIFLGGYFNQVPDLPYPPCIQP
# Chain of UniProt P09690 (whole entry, looked up): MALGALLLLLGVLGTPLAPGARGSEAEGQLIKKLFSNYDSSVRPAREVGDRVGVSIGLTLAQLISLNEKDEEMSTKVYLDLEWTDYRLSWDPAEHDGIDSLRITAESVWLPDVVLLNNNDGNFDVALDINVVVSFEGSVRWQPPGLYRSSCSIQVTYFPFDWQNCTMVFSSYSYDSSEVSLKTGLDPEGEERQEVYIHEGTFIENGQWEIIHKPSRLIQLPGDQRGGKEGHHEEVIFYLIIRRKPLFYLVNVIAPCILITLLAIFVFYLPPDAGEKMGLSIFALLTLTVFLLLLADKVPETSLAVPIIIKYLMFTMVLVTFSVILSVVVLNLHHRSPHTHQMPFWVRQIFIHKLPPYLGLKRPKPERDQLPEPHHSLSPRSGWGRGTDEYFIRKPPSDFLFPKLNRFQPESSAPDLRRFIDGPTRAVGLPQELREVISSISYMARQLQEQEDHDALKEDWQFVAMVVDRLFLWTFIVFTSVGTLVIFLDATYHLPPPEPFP
# CYSLTR2: Cysteinyl leukotriene receptor 2 (CYSLTR2, Homo sapiens, UniProt Q9NS75)
# Chain of UniProt P42866 (whole entry, looked up): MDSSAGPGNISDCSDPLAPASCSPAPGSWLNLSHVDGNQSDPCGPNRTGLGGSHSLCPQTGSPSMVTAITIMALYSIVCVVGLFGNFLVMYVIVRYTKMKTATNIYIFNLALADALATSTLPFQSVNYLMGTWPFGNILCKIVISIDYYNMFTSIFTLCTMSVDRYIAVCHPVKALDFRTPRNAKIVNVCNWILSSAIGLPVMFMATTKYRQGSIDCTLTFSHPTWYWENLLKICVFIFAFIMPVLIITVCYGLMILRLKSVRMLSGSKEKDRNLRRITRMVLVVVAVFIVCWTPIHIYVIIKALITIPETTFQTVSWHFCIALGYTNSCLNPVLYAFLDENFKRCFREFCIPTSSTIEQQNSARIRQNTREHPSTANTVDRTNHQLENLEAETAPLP
# Chain of UniProt Q9NS75 (whole entry, looked up): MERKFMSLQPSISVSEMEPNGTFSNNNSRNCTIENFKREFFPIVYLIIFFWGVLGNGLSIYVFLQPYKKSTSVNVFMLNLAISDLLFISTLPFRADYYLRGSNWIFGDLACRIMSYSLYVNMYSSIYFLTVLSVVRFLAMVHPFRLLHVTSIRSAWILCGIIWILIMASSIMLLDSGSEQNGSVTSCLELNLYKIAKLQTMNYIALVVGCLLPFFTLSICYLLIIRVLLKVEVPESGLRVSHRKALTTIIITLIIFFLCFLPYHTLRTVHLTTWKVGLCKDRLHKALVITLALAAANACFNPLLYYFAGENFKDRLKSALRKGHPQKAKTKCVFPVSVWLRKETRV
# Chain of UniProt Q13224 (whole entry, unmodified, looked up): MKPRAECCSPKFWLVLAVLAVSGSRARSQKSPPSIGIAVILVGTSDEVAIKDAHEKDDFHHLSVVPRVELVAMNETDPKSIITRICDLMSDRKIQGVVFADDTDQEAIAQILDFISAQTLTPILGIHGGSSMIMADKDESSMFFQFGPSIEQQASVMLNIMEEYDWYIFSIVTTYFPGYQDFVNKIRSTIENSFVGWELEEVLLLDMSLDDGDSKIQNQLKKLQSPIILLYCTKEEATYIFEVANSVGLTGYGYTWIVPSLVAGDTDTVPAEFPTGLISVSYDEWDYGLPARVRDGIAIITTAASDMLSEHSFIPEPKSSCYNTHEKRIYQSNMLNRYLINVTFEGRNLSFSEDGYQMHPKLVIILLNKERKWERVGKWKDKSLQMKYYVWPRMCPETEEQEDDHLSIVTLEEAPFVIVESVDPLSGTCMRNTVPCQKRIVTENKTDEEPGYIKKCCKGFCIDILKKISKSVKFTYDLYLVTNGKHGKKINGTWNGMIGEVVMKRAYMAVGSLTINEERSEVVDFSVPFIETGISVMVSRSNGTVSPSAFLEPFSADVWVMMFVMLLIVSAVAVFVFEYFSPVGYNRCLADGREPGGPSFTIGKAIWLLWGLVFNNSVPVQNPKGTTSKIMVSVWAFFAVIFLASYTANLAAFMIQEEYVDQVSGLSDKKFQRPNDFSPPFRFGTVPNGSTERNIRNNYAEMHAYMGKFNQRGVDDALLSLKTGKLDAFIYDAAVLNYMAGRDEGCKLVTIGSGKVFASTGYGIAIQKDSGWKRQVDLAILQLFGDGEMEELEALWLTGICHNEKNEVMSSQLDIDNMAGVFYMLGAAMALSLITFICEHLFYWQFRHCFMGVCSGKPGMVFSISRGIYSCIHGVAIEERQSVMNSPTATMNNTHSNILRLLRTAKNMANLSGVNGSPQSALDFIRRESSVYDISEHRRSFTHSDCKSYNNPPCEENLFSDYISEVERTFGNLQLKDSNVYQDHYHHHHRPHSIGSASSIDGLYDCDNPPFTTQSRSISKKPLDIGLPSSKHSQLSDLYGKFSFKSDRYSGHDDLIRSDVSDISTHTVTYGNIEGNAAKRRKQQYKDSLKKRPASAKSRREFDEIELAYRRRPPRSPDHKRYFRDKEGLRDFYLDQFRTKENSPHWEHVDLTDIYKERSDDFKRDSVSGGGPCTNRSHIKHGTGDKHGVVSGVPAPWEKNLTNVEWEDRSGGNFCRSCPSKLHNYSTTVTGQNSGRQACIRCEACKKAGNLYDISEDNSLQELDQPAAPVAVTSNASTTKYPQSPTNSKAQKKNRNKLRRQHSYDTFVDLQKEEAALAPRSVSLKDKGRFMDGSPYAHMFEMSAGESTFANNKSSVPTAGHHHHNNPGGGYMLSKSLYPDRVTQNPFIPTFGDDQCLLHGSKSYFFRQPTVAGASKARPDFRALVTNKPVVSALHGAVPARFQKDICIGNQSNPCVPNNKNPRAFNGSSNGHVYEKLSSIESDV
# Chain of UniProt Q99705 (whole entry, looked up): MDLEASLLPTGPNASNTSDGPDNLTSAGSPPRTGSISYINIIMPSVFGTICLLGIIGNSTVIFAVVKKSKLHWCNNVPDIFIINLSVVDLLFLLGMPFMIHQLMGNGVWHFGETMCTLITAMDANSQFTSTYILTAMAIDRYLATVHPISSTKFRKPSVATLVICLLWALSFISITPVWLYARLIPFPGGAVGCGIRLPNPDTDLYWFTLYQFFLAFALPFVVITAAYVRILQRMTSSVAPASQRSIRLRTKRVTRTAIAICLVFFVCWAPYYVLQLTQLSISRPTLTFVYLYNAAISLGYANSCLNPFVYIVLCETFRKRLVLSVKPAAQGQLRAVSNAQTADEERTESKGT
# Chain of UniProt P09936 (whole entry, looked up): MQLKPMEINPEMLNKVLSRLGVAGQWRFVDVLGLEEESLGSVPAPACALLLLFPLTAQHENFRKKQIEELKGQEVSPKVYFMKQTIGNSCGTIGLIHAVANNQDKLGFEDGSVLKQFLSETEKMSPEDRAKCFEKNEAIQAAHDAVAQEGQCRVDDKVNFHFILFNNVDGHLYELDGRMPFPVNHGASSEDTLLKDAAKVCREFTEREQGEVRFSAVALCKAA
Compound,target or system,test,system,setting,how to read,endpoint,value
COc1cc(/C=C/c2ccc(O)cc2)cc(OC)c1,"O-methyltransferase (Sorghum bicolor, UniProt A0A1B6PFV1, W279A)",isothermal titration calorimetry,,apo protein,,∆G,-8.26 kcal/mol
CSCC[C@H](NC(=O)[C@H](C)N)C(=O)N[C@@H](Cc1ccc(O)cc1)C(=O)NCC(=O)N[C@@H](CCCNC(=N)N)C(=O)N[C@@H](CO)C(=O)N[C@@H](CC(C)C)C(=O)N[C@@H](CCC(N)=O)C(=O)N[C@@H](Cc1ccccc1)C(=O)O,"HLA class I histocompatibility antigen, A alpha chain allele A*24:02",binding,,,,IC50,5.58 µM
[2H]c1c([2H])c([C@]2([2H])CCCN2C(=O)C(C)(C)Oc2ccc3cn[nH]c3c2)c([2H])c([2H])c1C([2H])([2H])[2H],"cGMP-dependent protein kinase 2 (PRKG2, Homo sapiens, UniProt Q13237)",KINOMEscan,,1 µM,reference: DMSO control,remaining binding,91%
Brc1ccc(COc2ccccc2CNCc2ccccc2)cc1,"Aminoglycoside N(3)-acetyltransferase IV (aacC4, Salmonella sp, UniProt P08988)","neomycin acetylation, inhibitor",,together with: neomycin,,highest concentration without inhibition,> 200 µM
CC[C@H](C)[C@H](NC(=O)[C@H](CCCNC(=N)N)NC(=O)[C@H](CC(N)=O)NC(=O)[C@H](Cc1ccccc1)NC(=O)[C@@H](NC(=O)[C@@H](N)Cc1ccc(O)cc1)[C@@H](C)O)C(=O)N[C@@H](Cc1c[nH]cn1)C(=O)N[C@@H](CCC(=O)O)C(=O)N[C@@H](Cc1ccccc1)C(=O)O,"HLA class I histocompatibility antigen, A alpha chain allele A*24:02",binding,,,,IC50,2.1 µM
C[C@H]1COCCN1c1nc(NCc2cccnc2C(F)(F)F)c2cccnc2n1,"Alpha-2A adrenergic receptor (ADRA2A, Homo sapiens, UniProt P08913)",binding,,CEREP panel,,IC50,> 100 µM
COc1cc(N)c(Cl)cc1C(=O)NC1CN2CCC1CC2 (centres unmarked),"G-protein coupled receptor 182 (GPR182, Homo sapiens, UniProt O15218)","β-arrestin recruitment, TANGO luminescence, refers to: GPR182",,concentration not given,reference: basal luminescence,log2 fold change,0.352
O=C(c1ccc(Cl)cc1)N1CCN2C(=O)N(OC(=O)N3CCOc4ccccc43)C(=O)C2C1 (centres unmarked),"Platelet-activating factor acetylhydrolase 2, cytoplasmic (PAFAH2, Homo sapiens, UniProt Q99487)","enzyme activity, inhibitor, MS-based ABPP",SW-620 in situ,"10 µM, 2 h, 37 °C","reference: compound over DMSO, lower = stronger inhibition",median ratio,1.1
O=C(O)c1cccc(C(=O)O)n1,"Metallo-beta-lactamase VIM-2 (VIM-2, Escherichia coli, UniProt Q5U7L7)","enzyme activity, inhibitor",,together with: nitrocefin,,koff,0.00383 ± 0.001 s⁻¹
CN1CCN(c2cc(-c3ccncc3)c(-c3ccc4ccccc4c3)nn2)CC1,"Melanin-concentrating hormone receptor 1 (MCHR1, Homo sapiens, UniProt Q99705)","agonist, FLIPR",,12.5 µM,,activation,4.6%
C[C@H]1CN(c2n[nH]c3nc(N[C@H]4CC[C@H](NS(=O)(=O)CCC(F)(F)F)CC4)ncc23)CCO1,"Nuclear cap-binding protein subunit 1 (Homo sapiens, UniProt Q09161)","Kinobeads competition, refers to: NCBP1",,"20 µM, unit not given",reference: vehicle,remaining binding,1.26
CC[N+]1(CC)CCN(c2ccccc2C)CC1,Nicotinic acetylcholine receptor alpha1/beta1/epsilon/delta,"ion current, inhibitor, two-electrode voltage clamp",Xenopus oocytes,"30 µM, after co-application, unit not given, together with: ACh 30 µM",reference: ACh alone,ACh response,0.668 ± 0.463
O=C(Nc1cccnn1)N1CCC(=Cc2cccc(Oc3ccc(C(F)(F)F)cn3)c2)CC1,CYSLTR2,radioligand binding,,"10 µM, together with: [3H]LTD4",,inhibition of binding,0%
Nc1ncnc2c1ncn2[C@@H]1O[C@H](COP(=O)(O)OP(=O)(O)O)[C@@H](O)[C@H]1O,"Cell cycle histidine kinase CckA, cytoplasmic region (Caulobacter vibrioides, UniProt Q9X688)","binding, ITC",,together with: without c-di-GMP,,association constant,1870 ± 221 M⁻¹
O=C(Nc1cnccc1Cl)N1CCN(Cc2ccc3c(c2)OC(F)(F)O3)CC1,"Nociceptin receptor (OPRL1, Homo sapiens, UniProt P41146)","radioligand binding, inhibitor",,"10 µM, human, together with: [3H]nociceptin",,inhibition,2%
CN(C(=O)n1cnc(-c2ccc[n+]([O-])c2)c1)C1CCCCC1,"Carboxylesterase 1C (Ces1c, Rattus norvegicus, UniProt P10959)","enzyme activity, ABPP","rat, brain","oral, 100 mg/kg/day, 1 days",reference: vehicle,fold change,-33.7
CN(C(=O)n1cnc(-c2ccc[n+]([O-])c2)c1)C1CCCCC1,CYSLTR2,radioligand binding,,"50 µM, together with: [3H]LTD4",,inhibition,1%
CN(CC(=O)O)C(=N)NP(=O)(O)O,"Creatine kinase U-type, mitochondrial (CKMT1A, Homo sapiens, UniProt P12532, E265D)","substrate, Kinase-Glo luminescence",,"pH 7.0, reverse reaction, E227D mutant, together with: second substrate in excess",,Km,139 ± 3 µM
Cc1nc2cc(CCOCCCCCc3ccccc3)ccc2n1COCC[Si](C)(C)C,"ATP2A2 (Sus scrofa, UniProt P11607)",ATPase activity,,,,concentration with loss of stimulation,≥ 5 µM
COc1cc2nccc(Oc3ccc(NC(=O)c4cc5c(n(-c6ccccc6)c4=O)CCCC5=O)nc3)c2cc1OC,"Discoidin domain-containing receptor 2 (DDR2, Homo sapiens, UniProt Q16832)","cell viability, CellTiter-Glo",Ba/F3 expressing recombinant kinase,,reference: DDR2 IC50 over AXL IC50,selectivity ratio,> 100
O=C(O)COP(=O)(O)O,"TPI1 (Saccharomyces cerevisiae, UniProt P00942, S211G)","enzyme activity, competitive inhibitor, GPDH/NADH-coupled",,"pH 6.4, 25 °C, ionic strength 0.1 NaCl, together with: glyceraldehyde 3-phosphate substrate",reference: mutant over wild type,Ki ratio,2.8
COc1cc2c(Oc3ccc4[nH]c(C)cc4c3F)ccnc2cc1OCC1(N)CC1,,,paediatric refractory sarcoma patients,8 mg,,Cholesterol elevation incidence,0%
NCCc1ccc(O)cc1,"N-alpha-acetyltransferase 80 (NAA80, Homo sapiens, UniProt Q93015)","substrate, DTNB",,"2 mM, 30 min, 37 °C, together with: acetyl-CoA 500 µM",,product formation,-0.09 µM
C[C@@H](NC(=O)[C@@H](N)Cc1ccc(O)cc1)C(=O)NCC(=O)N(C)[C@@H](Cc1ccccc1)C(=O)NCCO,"Mu-type opioid receptor (Oprm1, Mus musculus, UniProt P42866)",agonist,mouse spinal cord membranes,316 nM,reference: basal binding,GTPγS binding,-0.3% and -2.4% and -0.65% and 2.54% and 2.11% and -3.49% and 1.22% and 0.55%
CCCCCCC(=O)O,"Albumin (ALB, Homo sapiens, UniProt P02768)",differential scanning calorimetry,,"concentration not given, second transition, HSA 15 µM",reference: HSA alone,melting temperature change,-2.5 °C
COc1cc(Nc2ncc(F)c(Nc3ccc4c(n3)NC(=O)C(C)(C)O4)n2)cc(OC)c1OC,"Non-receptor tyrosine-protein kinase TNK1 (TNK1, Homo sapiens, UniProt Q13470)",KINOMEscan,,10 µM,,inhibition,100%
COc1ccc(N2C(=O)N(c3c(C)cccc3Cl)Cc3cnc(Nc4ccc(C5CCN(C)CC5)cc4OC)nc32)nc1,"MAP kinase-interacting serine/threonine-protein kinase 1 (MKNK1, Homo sapiens, UniProt Q9BUB5)","kinase activity, inhibitor",,"0.5 µM, MNK1",,inhibition,1.7%
O=C(O)[C@@H]1CS[C@H]2CS[C@H](CCS)N21,"sfhI (Serratia fonticola, UniProt Q9RMI1)",activity class,,concentration not given,,activity,inactive
CC(C)[C@@H](O)CC[C@@H](C)[C@H]1CC[C@H]2[C@@H]3CC=C4C[C@@H](O)CC[C@]4(C)[C@H]3CC[C@]12C,"Glutamate NMDA receptor; GRIN1/GRIN2B (GRIN1/GRIN2B, Homo sapiens, UniProt Q05586+Q13224, L567A)","positive allosteric modulator, two-electrode voltage clamp",Xenopus oocytes expressing GluN2B-L567A,"10 µM, 0.02% cremophor, together with: 100 µM glutamate and glycine",reference: without compound,current response,449 ± 23%
CC[N+]1(CC)CCN(c2cccc(C)c2)CC1,Nicotinic acetylcholine receptor alpha1/beta1/epsilon/delta,"ion current, inhibitor, two-electrode voltage clamp",Xenopus oocytes,"30 µM, after co-application, unit not given, together with: ACh 30 µM",reference: ACh alone,ACh response,0.473 ± 0.134
O=c1c2ccccc2oc2cc(OCCCCc3ccccc3)ccc12,"Acetylcholinesterase (ache, Electrophorus electricus, UniProt O42275)",enzyme activity,,"0.73 µM, together with: substrate 3.45 mM",higher = faster reaction,reaction velocity,0.0024 a.u.
O=C(O)c1coc(C(=O)CCl)c1,"Ubiquitin carboxyl-terminal hydrolase isozyme L1 (UCHL1, Homo sapiens, UniProt P09936)","covalent, intact protein LC-MS",,12.5 µM,,labelling,19%

# Excerpt of the above:
Compound,target or system,test,system,setting,how to read,endpoint,value
O=C(O)c1coc(C(=O)CCl)c1,"Ubiquitin carboxyl-terminal hydrolase isozyme L1 (UCHL1, Homo sapiens, UniProt P09936)","covalent, intact protein LC-MS",,12.5 µM,,labelling,19%
COc1cc(N)c(Cl)cc1C(=O)NC1CN2CCC1CC2 (centres unmarked),"G-protein coupled receptor 182 (GPR182, Homo sapiens, UniProt O15218)","β-arrestin recruitment, TANGO luminescence, refers to: GPR182",,concentration not given,reference: basal luminescence,log2 fold change,0.352
COc1cc(/C=C/c2ccc(O)cc2)cc(OC)c1,"O-methyltransferase (Sorghum bicolor, UniProt A0A1B6PFV1, W279A)",isothermal titration calorimetry,,apo protein,,∆G,-8.26 kcal/mol
